Measured values of several laboratories.
Lines come from different studies, so protocols differ. “And” joins repeats or separate records; there may be more than shown. ± marks the error that the study gave.

O=C1Cc2cc(CCN3CCN(c4nsc5ccccc45)CC3)c(Cl)cc2N1  mean blood pressure (male Hartley guinea pigs, anaesthetized; intravenous, 0.3 mg/kg group, baseline before infusion): 35 ± 0.4 mmHg
CC(C)[C@@H](CS(=O)(=O)C(C)C)N1C(=O)[C@@](C)(CC(=O)O)C[C@H](c2cccc(Cl)c2)[C@H]1c1ccc(Cl)cc1  AUC(0-inf) (FVB mice Abcb1a/b Abcg2 knockout, plasma; oral, 20 mg/kg): 7810 ± 661 ng·h/mL
CC[C@@H]1CN(C(=O)NCC(F)(F)F)C[C@@H]1c1cnc2cnc3[nH]ccc3n12  Q/F (population PK model; human, plasma; oral, outliers re-estimated): 3.22 L/h
COc1ccc2c3c([nH]c2c1)[C@H](CC(C)C)N1C(=O)[C@H](CC(=O)NC(C)C)NC(=O)[C@@H]1C3  spleen to body weight ratio (wild-type mouse; oral, 100 mg/kg daily, 23 days): 0.27% and 0.26%
O=C(c1cccnc1-c1ccncc1)N1CCC(O)(Cc2ccccc2)CC1  AUClast/dose (healthy Japanese adults, plasma; oral, 300 mg twice daily, day 21): 6.72 ng·h/mL/mg
COc1ccc2nc(NC(=O)c3cc(=O)c4ccccc4o3)sc2c1  maximum haemolysis (sheep erythrocytes; 1 h, pH 7.5): 8.3%
Cc1cccc(CNC(=O)c2cn(CCNC(=O)c3ccccc3Sc3c([N+](=O)[O-])ncn3C)c3cc4c(cc3c2=O)OC(F)(F)O4)n1  C0 (Sprague-Dawley rat, male, whole blood; intravenous, 5 mg/kg): 456 ± 77.9 ng/mL
Cc1cc(Nc2cc3ncccc3c(N[C@@H]3C[C@H]4CC[C@@H](C3)N4CCC#N)n2)n[nH]1  papular rash incidence (healthy human subjects; oral, 100 mg, 2 weeks, single ascending dose): 0%
CNCCOC12CC3(C)CC(C)(CC(Cn4ncc(-c5ccc(N6CCc7cccc(C(=O)Nc8nc9ccccc9s8)c7C6)nc5C(=O)O)c4C)(C3)C1)C2  QTcV interval change (beagle dog, male, anaesthetised; intravenous bolus, 0.03 mg/kg, 30 min; relative to: baseline): 15 ms
Cc1nc(-c2ccc(OCC(C)C)c(C#N)c2)sc1C(=O)O  subjects with haemoglobin decreased (healthy Chinese subjects; oral, 40 mg, fed): 5%
COc1cc2[nH]c(C)c(-c3ccc(C)cc3C)c(=O)c2cc1Cl  Papp (PAMPA; pH 7.4): 549 ×10⁻⁶ cm/s
COc1cc2c3c(n(CCCN4CCOCC4)c(=O)c2cc1OC)-c1cc2c(cc1C3=O)OCO2  Cmax (beagle dog, female, plasma; intravenous infusion, 215 mg/m^2, 1 h infusion): 1090 ng/mL
FC(F)(F)c1ccc(CNc2ccc(Cc3c[nH]c4ncc(Cl)cc34)cn2)cn1  adverse event incidence (refers to: blood creatine phosphokinase increased; patients with advanced solid tumours; oral, dose not given, grade 1 and 2, possibly related to drug): 31%
Cc1cc(-c2nccc3c2ccn3CC(=O)Nc2ccc(-c3cnccn3)cn2)ccn1  upper abdominal pain incidence (healthy human volunteers; oral, 40 mg single dose, single ascending dose): 16.7%
Cc1nc(-c2ccc(OCC(C)C)c(C#N)c2)sc1C(=O)O  body weight (KM mouse, chronic hyperuricaemia model; dose not given, day 11): 33.6 g and 36.2 g and 30 g and 29.8 g and 29 g and 32.6 g
CNC(=O)c1ccc(-c2cnc3ncc(Cc4ccc5ncccc5c4)n3n2)cc1F  patients with adverse event (refers to: Headache, all grades; cancer patients; oral, 600 mg twice daily, other expansion cohort, any causality): 17%
CC(C)(C(=O)N1CCOc2c(C#N)cncc2C1)C(F)F  subjects with myalgia TEAE (human, both sexes; oral, 30 mg single dose): 0%
COc1ccc([C@@H](O)c2cc(-c3ncnc4cc(N5CCOCC5)ccc34)c(F)cc2Cl)nn1  constipation TEAE incidence (locally advanced rectal cancer patients; 50 mg, with: capecitabine and radiotherapy): 0%
N#Cc1ccc2c(c1)[C@H]1CCCN(C(=O)c3ccc4[nH]cnc4c3)[C@H]1C2  SHBG level (human males; 360 mg, end of trial): 30.4 nmol/L
CCCCC1=NC2(CCCC2)C(=O)N1Cc1ccc(-c2ccccc2S(=O)(=O)Nc2noc(C)c2C)c(COCC)c1  AUC(0-inf) (healthy adult volunteers, plasma; oral, 100 mg, single dose, fed, crushed tablet): 20000 ng·h/mL
C[C@@H](N)C1CCN(S(=O)(=O)c2cccc3cnccc23)CC1  participants with headache (healthy volunteers; 75 mg, fasted): 0%
O=C1NCCc2nc(OCc3cccc(F)c3)ccc21  Irwin test score (refers to: tail erection; Sprague-Dawley rat male; oral, 100 mg/kg, 4 h; direction not given): 0
Cc1nccn1CC1CCc2c(c3ccccc3n2C)C1=O (stereo not shown)  C0 (male Sprague Dawley rat, plasma; iv bolus, 5 mg/kg, with: tariquidar 15 mg/kg iv): 12900 ng/mL
CCCCc1oc2ccccc2c1C(=O)c1cc(I)c(OCCN(CC)CC)c(I)c1  mean blood pressure (male Hartley guinea pigs, anaesthetized; intravenous, 5 mg/kg over 10 min, after infusion): 35 ± 0.2 mmHg
O=[N+]([O-])c1cnc2ccccc2c1O  maximum haemolysis (sheep erythrocytes; 1 h, pH 7.5): 2.5%
COc1ccc(C[C@@H](C)[C@@H](C)Cc2ccc(OC)c(OC)c2)cc1OC  Cmax (beagle dog female, plasma; oral, 300 mg/kg/day, day 28): 2180 ± 483 ng/mL
Oc1ccc(/C=C/c2cc(O)cc(O)c2)cc1  leucine aminopeptidase (rat, azoxymethane-injected, blood at sacrifice; 10 mg/kg): 46 IU/L and 45 IU/L and 44 IU/L
C=CC(=O)Nc1cc(Nc2nccc(-c3cn(C)c4ccccc34)n2)c(OC)cc1N(C)CCN(C)C  CLss/F (human patients; oral, cycle 3 day 1, safety run-in, mean, with: pemetrexed + cisplatin): 17.2 L/h
CC(C)NCC(O)COc1cccc2ccccc12 (stereo not shown)  mean blood pressure (male Hartley guinea pigs, anaesthetized; intravenous, 3 mg/kg group, baseline before infusion): 36 ± 0.3 mmHg
O=C(O)CCCOc1ccc([18F])cc1-c1cc(-c2ccccc2C(F)(F)F)n(-c2ccccc2)n1  radioactivity uptake (gamma counting; male ddY mice, liver; intravenous, 2.1 MBq, 60 min): 0.79 ± 0.15 SUV
Cc1cc(NC(=O)c2cccc(NC(=O)/C=C/CN(C)C)c2)ccc1Nc1nccc(-c2cccnc2)n1  remaining compound (rat Wistar male, plasma; 1 µM, 15 min): 95.3% and 97.3%
COCc1cc(C(=O)Nc2cc([C@H]3CC[C@@H](OC(=O)NC(C)C)C3)[nH]n2)n(C)n1  unbound Cmax (OVCAR-3 xenograft, NOD/SCID gamma mice, plasma; oral, 15 twice daily, PK/PD study): 335 nM
CC(C)Nc1ccnc(Nc2cccc(-c3ccccn3)c2)n1  Papp (A to B) (MDCKII-WT cells; 10 µM, pH 7.4): 0.388 ± 0.29 ×10⁻⁶ cm/s
O=C(CCCCCCC(=O)Nc1ccc(CC[18F])cc1)NO  tissue uptake (athymic nu/nu male mice, LNCaP xenograft, blood; intravenous, 2 h): 0.7 ± 0.1 %ID/g
O=C(Nc1nc2cccc(-c3ccc(CN4CCS(=O)(=O)CC4)cc3)n2n1)C1CC1  treatment-emergent adverse events (refers to: non-infective cystitis; rheumatoid arthritis patients; oral, 150 mg once daily, 4 weeks, any relatedness): 0%
Cc1ccc(C(=O)N(CCCN)C(c2nc3snc(C)c3c(=O)n2Cc2ccccc2)C(C)C)cc1 (stereo not shown)  patients with CTCAE grade ≥3 events (human patients; intravenous, 16 mg/day): 71%
N#C[C@@]12C[C@@H]1[C@@H](n1cnc3c(N[C@@H](C4CCC4)C4CC4)nc(I)nc31)[C@H](O)[C@@H]2O  Vd (Wistar rat, male, plasma; oral, 1.0 mg/kg): 165 L/kg
C=CC(=O)NC1CCN(c2ncc3ncnc(Nc4ccc(Oc5ccc6c(c5)ncn6C)c(C)c4)c3n2)CC1  participants with any TEAE (healthy male humans; oral, 240 mg): 68.8%
Cc1ccc(O)c(-n2nc3ccccc3n2)c1  mean daily dermal uptake (exposure assessment; human, age 16-21 years; sunscreen): 735 ng/kg body weight/day
C[Si](C)(C)O[Si](C)(C)O[Si](C)(C)C  intercept A, log KAW vs 1/T: 9.99
CCN1/C(=C/C(C)=O)Sc2ccc(F)cc21  systolic blood pressure change (cynomolgus monkey; oral, 100 mg/kg, 24 h post-dose; relative to: pre-dose): 95.9 ± 7.6%
NC[C@@H]1O[C@H](O[C@H]2[C@@H](O)[C@H](O[C@@H]3[C@@H](O)[C@H](N)C[C@H](N)[C@H]3O[C@H]3O[C@H](CO)[C@@H](O)[C@H](O)[C@H]3N)O[C@@H]2CO)[C@H](N)[C@@H](O)[C@@H]1O  body weight (NSG mice; dose not given, day 3 of treatment): 23.4 g and 22.3 g and 22.9 g and 20.7 g and 23.8 g and 21.2 g
O=C(O)CNC(=O)c1nc(Cl)c2ccccc2c1O  pKa (acidic): 3.1
CC[C@H](C)[C@@H]([C@@H](CC(=O)N1CCC[C@H]1[C@H](OC)[C@@H](C)C(=O)N[C@@H](Cc1ccccc1)C(=O)NCCCO)OC)N(C)C(=O)[C@@H](NC(=O)[C@H](C(C)C)N(C)C)C(C)C  metabolism via other pathways (human liver microsomes 1 mg/mL; 1 µM, with: ketoconazole and CYP3cide): ≤ 11.9%
CCC(CC)C(=O)Oc1cccc(C(O)CCN)c1.O=CO (stereo not shown)  ERG b-wave amplitude (scotopic ERG; BALB/cJ mice; intraperitoneal, 10 mg/kg, 2 h dark adaptation, with: 10,000 lx photobleach, 10 min): 166 µV and 133 µV and 98 µV and 143 µV and 154 µV and 22 µV
CN1C(C(=O)Nc2ccc(F)cn2)=C(O)c2ccccc2S1(=O)=O  pKa (basic): < 2

Some of these lines once more:
COc1cc2c3c(n(CCCN4CCOCC4)c(=O)c2cc1OC)-c1cc2c(cc1C3=O)OCO2  Cmax (beagle dog, female, plasma; intravenous infusion, 215 mg/m^2, 1 h infusion): 1090 ng/mL
FC(F)(F)c1ccc(CNc2ccc(Cc3c[nH]c4ncc(Cl)cc34)cn2)cn1  adverse event incidence (refers to: blood creatine phosphokinase increased; patients with advanced solid tumours; oral, dose not given, grade 1 and 2, possibly related to drug): 31%
Cc1cc(-c2nccc3c2ccn3CC(=O)Nc2ccc(-c3cnccn3)cn2)ccn1  upper abdominal pain incidence (healthy human volunteers; oral, 40 mg single dose, single ascending dose): 16.7%
Cc1nc(-c2ccc(OCC(C)C)c(C#N)c2)sc1C(=O)O  body weight (KM mouse, chronic hyperuricaemia model; dose not given, day 11): 33.6 g and 36.2 g and 30 g and 29.8 g and 29 g and 32.6 g
CNC(=O)c1ccc(-c2cnc3ncc(Cc4ccc5ncccc5c4)n3n2)cc1F  patients with adverse event (refers to: Headache, all grades; cancer patients; oral, 600 mg twice daily, other expansion cohort, any causality): 17%
CC(C)(C(=O)N1CCOc2c(C#N)cncc2C1)C(F)F  subjects with myalgia TEAE (human, both sexes; oral, 30 mg single dose): 0%
COc1ccc([C@@H](O)c2cc(-c3ncnc4cc(N5CCOCC5)ccc34)c(F)cc2Cl)nn1  constipation TEAE incidence (locally advanced rectal cancer patients; 50 mg, with: capecitabine and radiotherapy): 0%
